Experimental data pooled from the literature.
Compare with care: the assays were run in different laboratories. ± marks the error that the study gave.
Scavenger receptor class B member 1: Scavenger receptor class B member 1 (Mus musculus, UniProt Q61009)
NUDT15: Nucleotide triphosphate diphosphatase NUDT15 (NUDT15, Homo sapiens, UniProt Q9NV35)
SEC14: SEC14 (Saccharomyces cerevisiae, UniProt P24280)

By UniProt entry, the sequences of proteins in these tests, tags left out. Residues count along the entry.
UniProt Q61009, whole entry: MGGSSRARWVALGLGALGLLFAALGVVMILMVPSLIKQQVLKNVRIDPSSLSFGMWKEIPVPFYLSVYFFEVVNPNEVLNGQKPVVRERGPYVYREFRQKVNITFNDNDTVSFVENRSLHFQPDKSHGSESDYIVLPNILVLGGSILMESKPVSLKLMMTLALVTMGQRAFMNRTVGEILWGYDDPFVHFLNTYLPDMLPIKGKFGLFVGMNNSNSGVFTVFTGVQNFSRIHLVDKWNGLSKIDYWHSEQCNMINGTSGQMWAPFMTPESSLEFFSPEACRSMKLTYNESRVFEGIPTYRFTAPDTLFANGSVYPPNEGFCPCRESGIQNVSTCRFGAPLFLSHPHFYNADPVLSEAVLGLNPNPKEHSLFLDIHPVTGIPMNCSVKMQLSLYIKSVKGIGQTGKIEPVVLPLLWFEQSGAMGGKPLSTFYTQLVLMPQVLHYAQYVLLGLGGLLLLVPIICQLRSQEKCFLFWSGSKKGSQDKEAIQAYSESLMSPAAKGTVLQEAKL
UniProt Q9NV35, whole entry: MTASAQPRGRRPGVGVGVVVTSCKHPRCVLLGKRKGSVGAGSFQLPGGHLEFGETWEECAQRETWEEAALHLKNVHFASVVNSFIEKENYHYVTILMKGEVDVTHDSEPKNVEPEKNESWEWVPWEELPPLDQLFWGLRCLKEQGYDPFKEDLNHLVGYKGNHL
UniProt P24280, whole entry: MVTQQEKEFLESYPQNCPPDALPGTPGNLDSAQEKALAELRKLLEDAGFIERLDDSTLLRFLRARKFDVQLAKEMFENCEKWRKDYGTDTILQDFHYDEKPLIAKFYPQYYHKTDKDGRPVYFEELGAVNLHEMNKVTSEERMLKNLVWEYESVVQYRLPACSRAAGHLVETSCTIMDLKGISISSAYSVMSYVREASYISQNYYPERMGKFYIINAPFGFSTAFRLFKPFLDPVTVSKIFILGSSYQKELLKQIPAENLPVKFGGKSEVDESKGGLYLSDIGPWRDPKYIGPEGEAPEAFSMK
UniProt Q9NR97, 27-1041 limits assumed: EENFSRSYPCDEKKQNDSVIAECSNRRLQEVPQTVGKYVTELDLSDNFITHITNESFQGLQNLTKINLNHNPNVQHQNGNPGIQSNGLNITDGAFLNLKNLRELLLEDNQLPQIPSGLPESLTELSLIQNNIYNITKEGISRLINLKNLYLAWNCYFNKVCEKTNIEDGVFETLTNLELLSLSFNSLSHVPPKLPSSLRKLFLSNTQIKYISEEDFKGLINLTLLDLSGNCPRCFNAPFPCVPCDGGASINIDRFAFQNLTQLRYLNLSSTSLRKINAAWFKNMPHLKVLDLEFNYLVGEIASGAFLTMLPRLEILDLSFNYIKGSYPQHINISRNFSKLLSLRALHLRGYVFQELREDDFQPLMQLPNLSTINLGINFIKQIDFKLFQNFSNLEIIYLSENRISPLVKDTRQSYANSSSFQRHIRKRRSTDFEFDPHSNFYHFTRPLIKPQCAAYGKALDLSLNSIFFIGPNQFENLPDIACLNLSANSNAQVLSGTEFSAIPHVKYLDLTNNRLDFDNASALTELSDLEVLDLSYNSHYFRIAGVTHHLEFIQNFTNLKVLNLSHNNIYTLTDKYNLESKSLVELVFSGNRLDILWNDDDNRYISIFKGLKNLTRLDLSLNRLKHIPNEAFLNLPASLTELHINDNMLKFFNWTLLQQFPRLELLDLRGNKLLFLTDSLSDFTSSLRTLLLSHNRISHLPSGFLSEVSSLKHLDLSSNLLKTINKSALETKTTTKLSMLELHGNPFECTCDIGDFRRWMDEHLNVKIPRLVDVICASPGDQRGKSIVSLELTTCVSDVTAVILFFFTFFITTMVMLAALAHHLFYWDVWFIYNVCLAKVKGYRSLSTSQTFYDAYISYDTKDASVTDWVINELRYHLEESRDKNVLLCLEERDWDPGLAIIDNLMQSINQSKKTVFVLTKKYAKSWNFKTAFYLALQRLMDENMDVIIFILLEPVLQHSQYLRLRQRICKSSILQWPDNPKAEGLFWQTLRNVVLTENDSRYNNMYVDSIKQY
UniProt Q9H9B1, 1126-1243 limits assumed: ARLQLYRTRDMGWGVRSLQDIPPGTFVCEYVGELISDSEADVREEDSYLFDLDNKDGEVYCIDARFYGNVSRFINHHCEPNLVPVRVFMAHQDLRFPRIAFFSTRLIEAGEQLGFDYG
UniProt Q12809, whole entry: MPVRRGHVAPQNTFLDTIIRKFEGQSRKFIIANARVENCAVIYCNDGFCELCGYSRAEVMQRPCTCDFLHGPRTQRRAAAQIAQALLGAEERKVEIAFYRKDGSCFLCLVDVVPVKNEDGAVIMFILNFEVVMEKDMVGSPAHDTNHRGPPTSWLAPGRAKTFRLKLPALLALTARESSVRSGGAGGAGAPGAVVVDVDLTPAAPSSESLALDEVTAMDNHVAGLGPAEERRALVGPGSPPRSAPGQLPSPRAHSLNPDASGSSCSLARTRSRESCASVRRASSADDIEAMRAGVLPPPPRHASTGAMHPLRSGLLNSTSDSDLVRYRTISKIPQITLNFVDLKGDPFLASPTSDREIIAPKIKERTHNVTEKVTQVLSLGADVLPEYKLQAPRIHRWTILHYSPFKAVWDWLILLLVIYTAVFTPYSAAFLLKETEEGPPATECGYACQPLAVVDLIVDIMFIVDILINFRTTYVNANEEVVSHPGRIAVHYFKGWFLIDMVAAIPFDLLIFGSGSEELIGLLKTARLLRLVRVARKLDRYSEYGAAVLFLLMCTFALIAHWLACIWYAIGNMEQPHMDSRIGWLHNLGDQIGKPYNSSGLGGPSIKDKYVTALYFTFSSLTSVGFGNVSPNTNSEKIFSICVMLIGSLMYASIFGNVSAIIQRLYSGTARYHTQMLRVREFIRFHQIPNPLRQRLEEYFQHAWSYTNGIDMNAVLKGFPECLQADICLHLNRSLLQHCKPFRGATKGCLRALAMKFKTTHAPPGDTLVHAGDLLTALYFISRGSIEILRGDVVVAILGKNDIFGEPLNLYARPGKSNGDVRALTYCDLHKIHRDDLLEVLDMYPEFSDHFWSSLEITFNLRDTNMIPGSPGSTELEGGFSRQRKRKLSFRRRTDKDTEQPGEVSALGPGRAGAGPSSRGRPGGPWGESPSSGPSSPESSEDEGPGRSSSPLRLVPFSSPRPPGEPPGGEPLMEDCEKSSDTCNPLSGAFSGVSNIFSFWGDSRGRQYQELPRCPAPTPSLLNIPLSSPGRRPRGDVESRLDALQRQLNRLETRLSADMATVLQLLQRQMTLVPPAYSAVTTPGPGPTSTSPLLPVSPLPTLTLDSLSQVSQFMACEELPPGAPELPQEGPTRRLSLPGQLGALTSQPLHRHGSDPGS
UniProt O94788, 27-518 limits assumed: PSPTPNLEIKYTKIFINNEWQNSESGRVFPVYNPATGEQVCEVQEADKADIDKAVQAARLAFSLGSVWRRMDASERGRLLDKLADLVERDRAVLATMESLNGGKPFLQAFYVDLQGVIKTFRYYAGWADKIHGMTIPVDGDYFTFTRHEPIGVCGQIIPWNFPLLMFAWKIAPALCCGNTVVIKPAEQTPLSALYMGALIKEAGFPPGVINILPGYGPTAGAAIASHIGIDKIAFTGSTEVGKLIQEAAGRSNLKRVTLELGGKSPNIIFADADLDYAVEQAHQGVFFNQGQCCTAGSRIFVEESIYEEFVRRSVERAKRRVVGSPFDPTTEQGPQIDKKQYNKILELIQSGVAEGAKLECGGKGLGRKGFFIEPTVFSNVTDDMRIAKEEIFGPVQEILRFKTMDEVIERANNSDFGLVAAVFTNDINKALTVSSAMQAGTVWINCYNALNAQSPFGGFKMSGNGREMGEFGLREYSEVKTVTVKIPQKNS
UniProt P46098, whole entry, looked up: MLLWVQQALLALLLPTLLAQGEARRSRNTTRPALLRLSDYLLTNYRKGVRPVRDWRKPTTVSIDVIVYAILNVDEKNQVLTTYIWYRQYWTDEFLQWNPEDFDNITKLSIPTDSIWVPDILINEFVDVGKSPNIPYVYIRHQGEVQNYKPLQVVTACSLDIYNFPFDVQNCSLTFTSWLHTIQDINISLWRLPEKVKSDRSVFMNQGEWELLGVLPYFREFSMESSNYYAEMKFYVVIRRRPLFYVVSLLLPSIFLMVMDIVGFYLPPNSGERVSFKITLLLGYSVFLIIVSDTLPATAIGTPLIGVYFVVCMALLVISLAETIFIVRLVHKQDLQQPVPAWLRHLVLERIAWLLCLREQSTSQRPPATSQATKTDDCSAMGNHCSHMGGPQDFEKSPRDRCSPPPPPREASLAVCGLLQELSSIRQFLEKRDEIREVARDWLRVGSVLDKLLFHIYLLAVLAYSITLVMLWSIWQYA
UniProt Q14790, 214-479 D374A/D384A/C409S/G418A/C433S limits assumed: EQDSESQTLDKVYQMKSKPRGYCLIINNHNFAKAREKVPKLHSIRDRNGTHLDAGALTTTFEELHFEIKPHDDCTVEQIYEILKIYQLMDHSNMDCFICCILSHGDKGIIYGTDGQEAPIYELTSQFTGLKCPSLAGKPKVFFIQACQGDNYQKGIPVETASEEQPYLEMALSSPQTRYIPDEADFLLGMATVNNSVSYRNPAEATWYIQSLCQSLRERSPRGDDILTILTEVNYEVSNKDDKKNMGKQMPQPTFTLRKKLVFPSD
UniProt Q6PL18, 980-1092 limits assumed: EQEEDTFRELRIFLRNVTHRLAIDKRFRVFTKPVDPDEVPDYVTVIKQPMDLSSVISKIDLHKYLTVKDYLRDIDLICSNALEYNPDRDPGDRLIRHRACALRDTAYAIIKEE
UniProt P47871, 26-477 limits assumed: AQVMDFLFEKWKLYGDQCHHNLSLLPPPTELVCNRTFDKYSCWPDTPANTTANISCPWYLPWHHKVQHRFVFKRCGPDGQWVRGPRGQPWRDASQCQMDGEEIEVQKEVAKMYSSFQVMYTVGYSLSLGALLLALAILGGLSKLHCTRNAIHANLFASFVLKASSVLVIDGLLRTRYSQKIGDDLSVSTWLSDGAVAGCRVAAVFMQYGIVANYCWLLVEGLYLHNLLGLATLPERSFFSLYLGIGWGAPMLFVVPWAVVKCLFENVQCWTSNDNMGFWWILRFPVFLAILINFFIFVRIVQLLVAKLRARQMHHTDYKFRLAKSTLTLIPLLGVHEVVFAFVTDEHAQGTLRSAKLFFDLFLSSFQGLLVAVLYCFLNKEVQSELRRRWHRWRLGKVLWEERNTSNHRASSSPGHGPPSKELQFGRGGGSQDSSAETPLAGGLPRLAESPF
UniProt P00519, 65-534 limits assumed: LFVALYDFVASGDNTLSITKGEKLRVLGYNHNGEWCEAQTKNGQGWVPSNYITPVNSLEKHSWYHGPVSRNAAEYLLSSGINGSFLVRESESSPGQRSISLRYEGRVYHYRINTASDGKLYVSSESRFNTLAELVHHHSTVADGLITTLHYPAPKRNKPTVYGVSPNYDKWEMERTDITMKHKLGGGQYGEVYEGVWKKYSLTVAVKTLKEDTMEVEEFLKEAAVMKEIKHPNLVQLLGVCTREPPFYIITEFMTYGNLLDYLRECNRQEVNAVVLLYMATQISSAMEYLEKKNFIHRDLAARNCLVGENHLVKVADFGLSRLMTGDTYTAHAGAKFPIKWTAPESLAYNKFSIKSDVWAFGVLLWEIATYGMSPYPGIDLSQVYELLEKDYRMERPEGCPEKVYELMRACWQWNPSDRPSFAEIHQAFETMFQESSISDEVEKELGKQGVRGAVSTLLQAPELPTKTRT

`COCC(=O)N1CC(C)(C)c2cc(-c3csc(NC(=O)c4cccc(OC)c4)n3)ccc21` has an IC50 of 200 nM (Scavenger receptor class B member 1; DiI-HDL uptake, inhibitor; mouse cells; with: DiI-HDL).
`CS(=O)(=O)c1ccc(C(=O)N2CCN(S(=O)(=O)c3ccc4[nH]c(=O)oc4c3)CC2)cc1` has an IC50 of 1690 nM (NUDT15; enzyme activity, inhibitor, malachite green; with: dGTP).
The IC50 of `O=C(c1ccc(C(F)(F)F)cc1)N1CCN(c2ccc([N+](=O)[O-])c3ncccc23)CC1` is reported as 580 ± 110 nM (TLR8 (Homo sapiens, UniProt Q9NR97); reporter gene, inhibitor, SEAP reporter; HEK-Blue TLR8).
For `CCC(=O)N1CC(C)(C)c2cc(-c3csc(NC(=O)c4cc(OC)cc(OC)c4)n3)ccc21`, the IC50 was 12 nM (Scavenger receptor class B member 1; DiI-HDL uptake, inhibitor; mouse cells; with: DiI-HDL).
`COc1cc2c(NC3CCN(Cc4ccccc4)CC3)nc(NCCCN(C)C)nc2cc1OCCCCCN` has an IC50 of 50 nM (Histone-lysine N-methyltransferase EHMT1, SET domain (EHMT1, Homo sapiens, UniProt Q9H9B1); methyltransferase activity, inhibitor; 5 min, 30 °C, with: H3 peptide 5 µM, SAM 100 µM).
With `O=C(c1ccc(Cl)c([N+](=O)[O-])c1)N1CCN(Cc2ccccc2)CC1` the IC50 was > 20000 nM (SEC14; phosphatidylinositol transfer, inhibitor; Sec14 287 nM, with: [3H]-phosphatidylinositol).
For `O=C(c1ccccc1)N1CCN(S(=O)(=O)c2ccc3[nH]c(=O)oc3c2)CC1`, the IC50 was 192 nM (NUDT15; enzyme activity, inhibitor, malachite green; with: dGTP).
With `CN(C)S(=O)(=O)c1ccc(NCCCCN2CCC(Nc3nc4ccccc4n3Cc3ccc(F)cc3)CC2)c2nonc12` the IC50 was 14 nM (KCNH2 (Homo sapiens, UniProt Q12809); binding, radioligand displacement; hERG membranes; with: 9 nM [3H]dofetilide).
`O=C(c1ccc(Cl)c([N+](=O)[O-])c1)N1CCN(c2ccccc2)CC1` has an IC50 of 877 ± 95 nM (SEC14; phosphatidylinositol transfer, inhibitor; Sec14 287 nM, with: [3H]-phosphatidylinositol).
The excitation wavelength of `CN(C)S(=O)(=O)c1ccc(NCCN2CCC(Nc3nc4ccccc4n3Cc3ccc(F)cc3)CC2)c2nonc12` is reported as 415 nm (Tris-HCl assay buffer).
`CCOc1ccsc1C(=O)N1CCN(c2ccc([N+](=O)[O-])c(N3CCCC3)c2)CC1` gave an IC50 of 910 ± 330 nM (ALDH1A2 (Homo sapiens, UniProt O94788); enzyme activity, inhibitor, NADH formation; with: retinal 40 µM, NAD 100 µM).
For `CO[C@@H]1CNC[C@H](OCC2CCC(F)(F)CC2)[C@H]1Nc1ncc(-c2cncc(C)c2)c2cc(C)c(=O)[nH]c12`, the solubility was 326 µM (CLND).
`O=C1c2cccc3[nH]nc(c23)CCN1[C@H]1CN2CCC1CC2` has a Ki of 109 ± 17.2 nM (HTR3A (Homo sapiens, UniProt P46098); binding, [3H]granisetron SPA displacement; pH 10, with: [3H]granisetron 10 nM).
With `O=C(c1ccc(N2CCOCC2)cc1)N1CCC[C@@H](N(C(=O)CCl)c2ccccc2)C1` the IC50 was 7140 nM (Caspase-8 (CASP8, Homo sapiens, UniProt Q14790, C409S/C433S/D374A/D384A/G418A); probe labeling, competitive gel-based ABPP; HEK293T cell lysate; 1 h, with: alkyne probe 10 µM).
The selectivity of `Cc1cc2c(-c3cncc(N)c3)cnc(N[C@@H]3CCNC[C@H]3OCC3CCS(=O)(=O)CC3)c2[nH]c1=O` is reported as 1.9 log units (ATAD2 (Homo sapiens, UniProt Q6PL18); TR-FRET; relative to: ATAD2 over BRD4 BD1).
`Nc1ccc(C(=O)N2CCN(S(=O)(=O)c3ccc4[nH]c(=O)oc4c3)CC2)cc1` gave an IC50 of 361 nM (NUDT15; enzyme activity, inhibitor, malachite green; with: dGTP).
The IC50 of `CCc1nc(C2CC2)nc(N2CCN(C(=O)c3ccco3)CC2)c1Cc1cc(C)ccc1C` is reported as 22600 nM (Glucagon receptor (GCGR, Homo sapiens, UniProt P47871); cAMP accumulation, antagonist; CHO cells; with: glucagon).
`CC1(CNC(=O)c2ccc(C#Cc3ccccc3)cc2)NC(=O)NC1=O` (centres unmarked) has a solubility of < 2480 µg/mL (aqueous buffer; pH 7.4).
`N#Cc1ccc(C(=O)N2CCN(S(=O)(=O)c3ccc4[nH]c(=O)oc4c3)CC2)cc1` has an IC50 of 512 nM (NUDT15; enzyme activity, inhibitor, malachite green; with: dGTP).
For `Cc1ccc(NC(=O)c2cccc(C(F)(F)F)c2)cc1Nc1ncccc1-c1cc(Nc2ccc(OCCNC(=O)CCCC(=O)NCc3ccc(COc4nc(N)nc5[nH]cnc45)cc3)cc2)ncn1`, the IC50 was 400 ± 30 nM (Tyrosine-protein kinase ABL1, SH3-SH2-kinase domains (ABL1, Homo sapiens, UniProt P00519); enzyme activity, inhibitor; enzyme 6 nM).
